Measured values of several laboratories.
Numbered parts are unrelated; each lists some results of a single study.

Set 1
Target: Ras GTPase-activating protein-binding protein 1, C-terminal RGG region (G3BP1, Homo sapiens, UniProt Q13283)
Sequence of UniProt Q13283 (whole entry, looked up): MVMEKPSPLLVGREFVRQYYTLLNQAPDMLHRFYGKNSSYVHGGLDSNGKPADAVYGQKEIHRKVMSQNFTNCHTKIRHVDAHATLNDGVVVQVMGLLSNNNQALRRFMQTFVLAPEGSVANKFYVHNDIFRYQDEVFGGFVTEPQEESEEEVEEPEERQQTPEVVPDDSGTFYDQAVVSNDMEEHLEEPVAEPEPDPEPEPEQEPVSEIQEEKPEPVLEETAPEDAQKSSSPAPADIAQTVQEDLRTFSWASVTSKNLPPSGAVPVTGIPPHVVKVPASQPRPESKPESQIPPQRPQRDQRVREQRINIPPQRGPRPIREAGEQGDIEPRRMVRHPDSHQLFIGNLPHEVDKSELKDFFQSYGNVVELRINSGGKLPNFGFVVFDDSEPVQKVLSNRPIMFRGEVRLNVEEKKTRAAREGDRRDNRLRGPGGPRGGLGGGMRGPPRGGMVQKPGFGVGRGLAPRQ
Method: RNA Bind-n-Seq
Form: RNA
Sample: in vitro
Concentration: 1 µM
Notes: whole 134-nt RNA, ends assumed
With: 150 mM KCl
Baseline: input library
Reading: higher = stronger binding
All sequences stand within: GGGAGUUCUACAGUCCGACGAUC … UGGAAUUCUCGGGUGUCAAGG
| Oligonucleotide | log2 enrichment |
| --- | --- |
| CACAGACAACACGCACCCACACAGACACAGAGGGAAGGGGUUGGGAUGGGGACAGGGUGCACAGCAGGGCGGAGUAGGACCCCAGCCCCU | -0.782 |
| GCAGGAAGUAAAAACAAAUGGAAAUGCUUCGGAUAGUGGCAGGAGUGGGGGUUGCUAAGGAAAGGGUGGGAUGGGAGUGGGUAAAGAGUU | 0.96 |
| UGGGAGGUGGAUUUUGUUUAUUUUUUUAGCUCAUUUCCAGGGGUGGGAAUUUUUUUUUAACAUGUGUCAUGAAUAAAGUUGUUUUUGAAA | 3.27 |
| AGUCCUGUGCUACACAUCGUAUGUACCGAAUCGGGGUUUUGGGGUUUUGGUUUUGGGAAAGUAUUAUGUUACGCCGUUCGGAUCUGCACU | -0.88 |
| AAGUCCUGUGCUACACAUCGUAUGUACCGAAUCGGGCCCCGGCCCCGGGCCCCGGGGAAAGUAUUAUGUUACGCCGUUCGGAUCUGCACU | -2.17 |

Set 2
Target: Histone acetyltransferase KAT6A, winged helix 2, GST fusion (KAT6A, Homo sapiens, UniProt Q92794, residues 85-181)
Method: protein binding microarray
Form: double-stranded DNA, one strand shown
Sample: in vitro
Concentration: not given
Notes: 8-mer, flanks averaged, mean of 2 arrays, mostly near background
Baseline: not given
Reading: higher = stronger binding
Target sequence (chain): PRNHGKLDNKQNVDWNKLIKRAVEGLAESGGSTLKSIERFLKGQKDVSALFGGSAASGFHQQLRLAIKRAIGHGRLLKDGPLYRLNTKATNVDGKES
| Oligonucleotide | E-score |
| --- | --- |
| GGGACCTA | 0.0834 |
| CCTGTTCC | 0.0245 |
| AAGGCAGG | -0.00999 |
| CGCGGGTC | 0.245 |
| ACGCATTC | -0.0868 |
| CCTTTAGC | 0.106 |

Set 3
Target: Interferon regulatory factor 7, full length, phosphomimetic (IRF7, Homo sapiens, UniProt Q92985, residues 1-503, S471D/S472D/S475D/S476D/S477D/S483D/S484D/S487D)
Method: protein-binding microarray
Form: double-stranded DNA, one strand shown
Sample: in vitro
Concentration: 2200 nM top
Notes: 60-bp whole probe
With: salmon DNA 0.4 mg/ml
Baseline: random background probes
Reading: higher = stronger binding
All sequences stand within: GCCTAGCAC … GTCTTGATTCGCTTGACGCTGCTG
Target sequence (chain): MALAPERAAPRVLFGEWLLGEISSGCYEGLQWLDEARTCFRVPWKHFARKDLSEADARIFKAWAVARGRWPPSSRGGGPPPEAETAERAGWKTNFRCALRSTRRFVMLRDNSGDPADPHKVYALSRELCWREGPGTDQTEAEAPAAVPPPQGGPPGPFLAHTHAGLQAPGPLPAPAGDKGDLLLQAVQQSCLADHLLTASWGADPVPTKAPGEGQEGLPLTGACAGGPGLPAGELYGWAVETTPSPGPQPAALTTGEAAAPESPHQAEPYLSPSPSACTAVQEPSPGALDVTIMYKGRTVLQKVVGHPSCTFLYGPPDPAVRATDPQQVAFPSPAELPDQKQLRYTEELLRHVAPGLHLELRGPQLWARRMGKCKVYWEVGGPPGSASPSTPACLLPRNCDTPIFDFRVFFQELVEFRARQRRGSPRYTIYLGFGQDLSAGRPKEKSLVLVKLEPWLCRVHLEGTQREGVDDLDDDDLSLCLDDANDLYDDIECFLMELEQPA
| Oligonucleotide | fitted relative affinity |
| --- | --- |
| TTAGGTTGCGACTATCGGTTAGTGCTA | 0.244 z-score |
| CCAGACCCTGATCCATGCATGTGCTAG | -0.237 z-score |
| CCTGTAATCCCAGCTACTCAGTGCTAG | 0.667 z-score |
| TTAGGACTGGGACTGGGTAAGTGCTAG | -1.03 z-score |
| GACGGTATCGGTCTCTGGACGTGCTAG | 0.537 z-score |
| ATAGGTCTCGGTCTCGGTTAGTGCTAG | 1.07 z-score |

Further values, each from its own experiment
| Substance | target | test | test system | setting | scale | quantity | result |
| --- | --- | --- | --- | --- | --- | --- | --- |
| PhoQ, residues 284 288 289 292 302 303 TLMATV | PhoP, residues 12 14 15 18 19 HLGGL (Escherichia coli, UniProt P23836) | Sort-seq, refers to: YFP reporter | E. coli | PhoQ-PhoP variant library, with: 10 µM Mg2+ | baseline: high Mg2+ state, higher = stronger signaling | fold induction | 29 |

Repeated from above (set 2):
| Oligonucleotide | E-score |
| --- | --- |
| CCTTTAGC | 0.106 |
